Measurements gathered from unrelated publications.
A part holds a random share of what one study measured. Substitutions count along the parent as printed.

Set 1
Target: CCNA1, cyclin fold, Cln2 fusion (human)
Method: yeast growth competition, sequencing
Sample: yeast
Notes: weak parent motif
Reference: not given
Direction: higher = stronger binding
Measurement: normalised enrichment score
Parent: AKAP12 docking peptide (human); GSPLKKLFTSTGL; partner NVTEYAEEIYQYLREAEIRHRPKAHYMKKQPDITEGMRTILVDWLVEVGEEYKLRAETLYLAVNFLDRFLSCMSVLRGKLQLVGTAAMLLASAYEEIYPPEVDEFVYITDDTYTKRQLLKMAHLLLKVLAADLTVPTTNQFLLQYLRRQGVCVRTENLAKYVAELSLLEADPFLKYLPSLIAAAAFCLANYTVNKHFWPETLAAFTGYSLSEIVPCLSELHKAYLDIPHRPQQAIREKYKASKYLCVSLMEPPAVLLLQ
K5R: -0.541
K5R F8L: -0.575
G12A: -0.153
L13A: 0.338
K6A: 0.0105
K5A L7A: -0.0675
K5A: 0.0723
P3A: 0.182
L7A: 0.0705
S2A: 0.227

Set 2
Target: Fragile X messenger ribonucleoprotein 1, C-terminal low-complexity region (Fmr1, Mus musculus, UniProt P35922)
Method: RNA Bind-n-Seq
Molecule type: RNA
Sample: in vitro
Tested at: 200 nM
Notes: whole 134-nt RNA, ends assumed
With: 150 mM LiCl
Reference: input library
Direction: higher = stronger binding
Measurement: log2 enrichment
Each molecule: 7-deaza-guanosine replaces G
Shared flanks, not repeated: GGGAGUUCUACAGUCCGACGAUC … UGGAAUUCUCGGGUGUCAAGG
CCUGUGCUACACAUCGUAUGUACCGAAUCGGGGUUUUUUUGGUUUUUUUGGGUUUUUUUGGAAAGUAUUAUGUUACGCCGUUCGGAUCUG: 0.811
GUCCUGUGCUACACAUCGUAUGUACCGAAUCGGUUUUUUUGGUUUUUUUGGUUUUUGGAAAGUAUUAUGUUACGCCGUUCGGAUCUGCAC: -1.47
UCCUGUGCUACACAUCGUAUGUACCGAAUCGUGUGUGUGUGUGUGUGUGUGUGUGUGUGAAAGUAUUAUGUUACGCCGUUCGGAUCUGCA: -0.381
CCUCAAGUCCUGUGCUACACAUCGUAUGUACCGAAUCGGUUGGGUUGGGUUGGAAAGUAUUAUGUUACGCCGUUCGGAUCUGCACUUCCA: -0.351
CAAGUCCUGUGCUACACAUCGUAUGUACCGAAUCGGUUUUUGGAAAAAAAGGUGGAAAGUAUUAUGUUACGCCGUUCGGAUCUGCACUUC: -1.76
CAAGUCCUGUGCUACACAUCGUAUGUACCGAAUCGGGUUUGGGUUUGGGUUUGGGGAAAGUAUUAUGUUACGCCGUUCGGAUCUGCACUU: -1.53
AGUCCUGUGCUACACAUCGUAUGUACCGAAUCGGGGCCCCCGGGCCCCCGGCCCCCGGAAAGUAUUAUGUUACGCCGUUCGGAUCUGCAC: -2.68
UCAUUGCAUGAAAAGUGGAAAAGUUUAGAUCUAUGGAAACAGAACUGUUGCCUAUAUGGAAAAUCAGUGCCUUGUGGCAAUACAGGUAAG: -2.66

Set 3
Target: Protein C-ets-1 (ETS1, Homo sapiens, UniProt P14921, residues 1-441, full length assumed)
Method: protein-binding microarray
Molecule type: double-stranded DNA, one strand shown
Sample: in vitro
Tested at: not given
Notes: k-mer, scored over probes, only values ≥0.25
Direction: higher = stronger binding
Measurement: E-score
Residues (chain): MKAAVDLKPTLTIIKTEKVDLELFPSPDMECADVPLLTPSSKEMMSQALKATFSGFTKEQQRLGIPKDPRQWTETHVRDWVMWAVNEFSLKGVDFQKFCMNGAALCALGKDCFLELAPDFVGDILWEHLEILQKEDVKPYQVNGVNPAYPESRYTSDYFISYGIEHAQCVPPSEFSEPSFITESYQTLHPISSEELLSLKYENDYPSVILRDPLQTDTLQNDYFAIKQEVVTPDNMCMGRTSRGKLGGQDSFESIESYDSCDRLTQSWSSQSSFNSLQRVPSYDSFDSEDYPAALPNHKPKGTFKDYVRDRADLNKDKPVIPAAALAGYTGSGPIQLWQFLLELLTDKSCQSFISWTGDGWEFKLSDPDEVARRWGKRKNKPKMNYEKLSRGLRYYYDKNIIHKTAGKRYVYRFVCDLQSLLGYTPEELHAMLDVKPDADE
ATTTCCCG: 0.436
ATCCAGGA: 0.309
AACCGGTA: 0.371
ACTATCCG: 0.302
CTACGGAA: 0.362
ATACAGGA: 0.385
CCAGCCGG: 0.277
AGGATGTG: 0.442
AAATTCCG: 0.264
ATCACATC: 0.314
AGAAGGAA: 0.265
GGTCCGGA: 0.364
GAAGGGAA: 0.309
CCGCGCGG: 0.265
CGGACGGA: 0.387
CGGAAGGC: 0.437
ACCCGGAA: 0.461
AACCTTCC: 0.324
ATCCGGGG: 0.447
ACCGGGAA: 0.359
ACACCGGT: 0.285
ACCGGAAA: 0.495

Set 4
Target: Runt-related transcription factor 1, full length (RUNX1, Homo sapiens, UniProt Q01196-8, residues 1-480)
Method: protein-binding microarray
Molecule type: hairpin DNA
Sample: in vitro
Tested at: not given
Notes: whole hairpin DNA, median over replicate spots
Reference: not given
Direction: higher = stronger binding
Measurement: median fluorescence
GAGGCCTGTTGTTGTTGGCCTCCTGGCCAACAACAACAGGCCTCACACTC: 1690 a.u.
GAGGCCCAAGCGCAACAGCCTCCTGGCTGTTGCGCTTGGGCCTCACACTC (5mC at 35): 1690 a.u.
GACGCCTGTCGCGGTTGGCCTCCTGGCCAACCGCGACAGGCGTCACACTC (5mC at 3): 2510 a.u.
GAGGCCTGTCGCGGTTTGCCTCCTGGCAAACCGCGACAGGCCTCACACTC: 3480 a.u.
GAGGCCCAACCGCCGCAGCCTCCTGGCTGCGGCGGTTGGGCCTCACACTC (5mC at 14): 2800 a.u.
GAGGCCTGTCGCGGTTGGCCTCCTGGCCAACCGCGACAGGCCTCACACTC (5mC at 10 12 32 34): 1970 a.u.
GAGGCCCAACCGCAGCAGCCTCCTGGCTGCTGCGGTTGGGCCTCACACTC: 4400 a.u.
GAGGCCTGTTGCGGTGGGCCTCCTGGCCCACCGCAACAGGCCTCACACTC: 3210 a.u.
GAGGCCTGTCTCGGTTGGCCTCCTGGCCAACCGAGACAGGCCTCACACTC: 1740 a.u.
GAGGCCCAACGGCAACAGCCTCCTGGCTGTTGCCGTTGGGCCTCACACTC (5mC at 10 34): 1810 a.u.
CTCAGGTCTGTGGGCTGGACTCCTGTCCAGCCCACAGACCTGAGACACTC: 1960 a.u.
GAGGCCTGTTGTGGGTGGCCTCCTGGCCACCCACAACAGGCCTCACACTC (5mC at 30): 1970 a.u.
